Literature values as cited in several papers.
Each line is one published result; not all experiments were run side by side.

Structure (SMILES) | target or system | test | system | setting | measurement | result
C[C@H]1COCCN1c1nc(-c2cnc(N)cc2C(F)F)nc(N2CCOCC2)n1 | NCI-H460 | – | – | – | GI50 | 0.15 µM
Cc1[nH]c(C)c(C2CCC(c3ccc(Cl)cc3)CC2)c(=O)c1Cl (stereo not drawn) | Plasmodium falciparum | whole cell extended time | 3D7 | 72 h | IC50 | 0.05 µM
Nc1cc(C(F)(F)F)c(-c2nc(N3CCOCC3)nc(N3CCOCC3)n2)cn1 | PA-1 | – | – | – | GI50 | 0.612 µM
COc1ccccc1Oc1cccc(CN2CCC(NC(=O)C(CCN3CCCC3)c3ccccc3)CC2)c1 (stereo not drawn) | human CCR8 F123A mutant (TM3) | IP accumulation, agonist | – | – | EC50 | 0.005 µM
COc1ccc2c(NN=Cc3ccc(Cl)cc3)ccnc2c1 | Plasmodium falciparum | whole cell extended time | 3D7 | 72 h | IC50 | 0.87 µM
COc1ccccc1Oc1cccc(CN2CCC(NC(=O)C3CC(=O)Nc4ccccc43)CC2)c1 (stereo not drawn) | human CCR8 S289A mutant (TM7) | IP accumulation, agonist | – | – | EC50 | 0.036 µM
CCOC(=O)c1c(-c2ccccc2)nc2c(sc3ccccc32)c1O | Plasmodium falciparum | whole cell extended time | 3D7 | 72 h | IC50 | 0.37 µM
CCNS(=O)(=O)c1ccc(OC)cc1C1(O)CCN(Cc2cccc(Oc3ccccc3OC)c2)CC1 | human CCR8 F112A mutant (TM3) | IP accumulation, agonist | – | – | EC50 | 0.013 µM
CNC(C)C1CCC(N)C(OC2C(N)CC(N)C(OC3OCC(C)(O)C(NC)C3O)C2O)O1 (stereo not drawn) | Pseudomonas aeruginosa | – | clinical isolate RKI-No_393/11 | – | MIC | > 8 µg/mL
COc1ccc(NS(=O)(=O)c2cc(NC(=O)Cn3ccccc3=O)ccc2N2CCCCC2)cc1 | Plasmodium falciparum | whole cell extended time | 3D7 | 72 h | IC50 | 0.7 µM
CC1(C)S[C@@H]2[C@H](NC(=O)[C@H](N)c3ccccc3)C(=O)N2[C@H]1C(=O)O | Acinetobacter baumannii | – | clinical isolate RKI-No_272/16 | – | MIC | > 16 µg/mL
COc1ccccc1Oc1cccc(CN2CCC(O)(c3ccccc3C(=O)O)CC2)c1 | human CCR8 F46A mutant (TM1) | IP accumulation, agonist | – | – | EC50 | 0.126 µM
